Published values pooled from the literature.
Numbers after ± are the reported error.
Sequence of UniProt P21397 (whole entry, looked up): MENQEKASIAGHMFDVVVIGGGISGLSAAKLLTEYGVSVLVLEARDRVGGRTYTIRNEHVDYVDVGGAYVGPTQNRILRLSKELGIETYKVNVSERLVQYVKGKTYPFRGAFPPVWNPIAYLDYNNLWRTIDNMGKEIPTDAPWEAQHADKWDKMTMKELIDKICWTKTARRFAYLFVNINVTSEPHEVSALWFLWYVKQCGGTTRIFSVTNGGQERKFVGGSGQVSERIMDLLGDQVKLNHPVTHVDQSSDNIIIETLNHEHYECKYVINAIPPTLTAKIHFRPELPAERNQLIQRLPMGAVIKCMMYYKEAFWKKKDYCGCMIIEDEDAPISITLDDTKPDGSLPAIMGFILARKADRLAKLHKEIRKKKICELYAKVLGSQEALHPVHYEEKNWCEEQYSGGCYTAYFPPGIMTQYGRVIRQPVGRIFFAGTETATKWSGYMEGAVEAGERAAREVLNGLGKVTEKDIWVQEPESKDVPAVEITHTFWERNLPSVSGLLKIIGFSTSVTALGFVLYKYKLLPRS
Sequence of UniProt Q01959 (whole entry, looked up): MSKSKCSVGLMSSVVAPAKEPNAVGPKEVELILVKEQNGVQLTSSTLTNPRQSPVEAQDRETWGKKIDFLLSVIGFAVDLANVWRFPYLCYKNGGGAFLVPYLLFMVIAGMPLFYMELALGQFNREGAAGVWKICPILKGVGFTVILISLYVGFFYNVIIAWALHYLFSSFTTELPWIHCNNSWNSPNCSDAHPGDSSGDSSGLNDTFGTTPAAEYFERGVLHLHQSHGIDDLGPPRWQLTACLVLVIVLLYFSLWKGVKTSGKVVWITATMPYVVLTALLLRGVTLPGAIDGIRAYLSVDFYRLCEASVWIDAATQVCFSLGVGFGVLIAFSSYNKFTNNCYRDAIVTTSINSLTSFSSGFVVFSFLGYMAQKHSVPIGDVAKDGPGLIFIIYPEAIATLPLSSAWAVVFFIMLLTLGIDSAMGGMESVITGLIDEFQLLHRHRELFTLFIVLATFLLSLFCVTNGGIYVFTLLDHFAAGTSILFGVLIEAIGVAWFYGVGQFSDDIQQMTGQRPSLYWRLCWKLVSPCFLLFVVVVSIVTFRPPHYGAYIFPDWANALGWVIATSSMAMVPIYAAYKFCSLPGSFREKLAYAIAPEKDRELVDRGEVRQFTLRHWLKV
Sequence of UniProt P06730 (whole entry, looked up): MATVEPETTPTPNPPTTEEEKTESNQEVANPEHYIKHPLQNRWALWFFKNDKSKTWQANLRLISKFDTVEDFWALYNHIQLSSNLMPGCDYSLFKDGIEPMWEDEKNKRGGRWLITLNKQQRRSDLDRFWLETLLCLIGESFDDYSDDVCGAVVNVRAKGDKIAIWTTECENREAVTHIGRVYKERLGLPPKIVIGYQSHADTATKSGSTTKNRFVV
Sequence of UniProt Q00987 (whole entry, looked up): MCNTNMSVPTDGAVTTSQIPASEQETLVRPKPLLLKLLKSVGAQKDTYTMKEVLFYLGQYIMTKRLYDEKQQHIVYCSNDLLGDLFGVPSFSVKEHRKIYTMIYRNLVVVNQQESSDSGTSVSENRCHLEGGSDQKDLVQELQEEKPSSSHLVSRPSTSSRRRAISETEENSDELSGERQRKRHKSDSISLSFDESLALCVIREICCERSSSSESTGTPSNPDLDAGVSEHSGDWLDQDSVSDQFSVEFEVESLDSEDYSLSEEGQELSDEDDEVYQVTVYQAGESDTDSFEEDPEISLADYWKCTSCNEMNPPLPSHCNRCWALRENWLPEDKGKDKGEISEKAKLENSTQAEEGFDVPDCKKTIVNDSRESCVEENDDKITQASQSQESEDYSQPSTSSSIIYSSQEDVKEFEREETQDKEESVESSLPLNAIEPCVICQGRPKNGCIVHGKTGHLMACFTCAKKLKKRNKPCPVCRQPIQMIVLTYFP

CC[C@H](C)[C@@H]1NC(=O)[C@@H]2CSSC[C@@H]3NC(=O)[C@H](C(C)C)NC(=O)CNC(=O)CNC(=O)[C@H](C)NC(=O)[C@H](CO)NC(=O)[C@H](CC(C)C)NC(=O)[C@H](CC(C)C)NC(=O)[C@H](CC(N)=O)NC(=O)[C@H](Cc4c[nH]c5ccccc45)NC(=O)[C@H](Cc4ccc(O)cc4)NC(=O)[C@H](CCC(=O)O)NC(=O)[C@H](C)NC(=O)[C@H](Cc4ccccc4)NC(=O)[C@H](CO)NC(=O)[C@H]([C@@H](C)O)NC(=O)[C@@H]4CCCN4C(=O)[C@H](C)NC(=O)[C@H](CCCNC(=N)N)NC(=O)[C@H](CO)NC(=O)[C@H](C)NC(=O)CNC(=O)[C@H](CO)NC(=O)CNC(=O)[C@H](CO)NC(=O)CNC(=O)[C@@H]4CSSC[C@H](NC(=O)[C@H](CC(=O)O)NC(=O)[C@H](CO)NC(=O)[C@H](CC(=O)O)NC(=O)[C@H](CCCNC(=N)N)NC(=O)[C@H](CCCNC(=N)N)NC(=O)[C@H](CSSC[C@H](NC1=O)C(=O)N[C@@H](CCCNC(=N)N)C(=O)NCC(=O)N[C@@H](CC(N)=O)C(=O)NCC(=O)N[C@@H](Cc1ccc(O)cc1)C(=O)N4)NC(=O)[C@H](CCCNC(=N)N)NC(=O)[C@H](CCC(N)=O)NC(=O)[C@H](CC(C)C)NC(=O)[C@H]([C@@H](C)CC)NC(=O)[C@H](CCCCN)NC(=O)[C@@H]1CCCN1C3=O)C(=O)N1CCC[C@H]1C(=O)NCC(=O)N[C@@H](C)C(=O)N2
Kd (E3 ubiquitin-protein ligase Mdm2, p53-binding domain (MDM2, Homo sapiens, UniProt Q00987); binding, fluorescence polarization; FITC-labelled derivative): 0.0023 ± 0.0001 µM

NC1CC1c1ccc(NC(=O)C(NC(=O)OCc2ccccc2)c2ccccc2)cc1 (centres unmarked)
IC50 (NB-4 APL cells): 62.2 ± 9.2 µM

CC[C@H](C)[C@H](NC(=O)[C@H](CC(C)C)NC(=O)[C@H](CCCCN)NC(=O)[C@@H](NC(=O)[C@H](C)NC(=O)[C@H](CCC(=O)O)NC(=O)[C@H](Cc1c[nH]cn1)NC(=O)[C@@H](NC(=O)[C@H](CCCCN)NC(=O)[C@H](CCC(N)=O)NC(=O)[C@H](Cc1ccccc1)NC(=O)[C@@H](NC(=O)[C@H](CCCCN)NC(=O)[C@H](CCCCN)NC(=O)[C@H](CC(C)C)NC(=O)[C@H](C)NC(=O)[C@H](CC(N)=O)NC(=O)[C@@H](N)CC(C)C)C(C)C)[C@@H](C)CC)[C@@H](C)CC)C(N)=O
HC10 (mouse erythrocytes): 100 µM

Nc1nc2c(c(=O)[nH]1)[n+](Cc1cc3cc(Cl)ccc3[nH]1)cn2C/C=C\CP(=O)(O)O
IC50 (Eukaryotic translation initiation factor 4E (EIF4E, Homo sapiens, UniProt P06730); m7GTP cap binding, inhibitor, fluorescence polarization; 40 min, room temperature, added: 15 nM labelled m7GTP probe): 5.6 ± 0.2 µM

CC[C@H](C)[C@H](NC(=O)[C@H](C)NC(=O)[C@H](CCC(=O)O)NC(=O)[C@H](Cc1c[nH]cn1)NC(=O)[C@@H](NC(=O)[C@H](CCCCN)NC(=O)[C@H](CCC(N)=O)NC(=O)[C@H](Cc1ccccc1)NC(=O)[C@@H](NC(=O)[C@H](CCCCN)NC(=O)[C@H](CCCCN)NC(=O)[C@H](CC(C)C)NC(=O)[C@H](C)NC(=O)[C@H](CC(N)=O)NC(=O)[C@@H](N)CC(C)C)C(C)C)[C@@H](C)CC)C(=O)N[C@@H](CCCCN)C(N)=O
geometric mean MIC (Gram-positive and Gram-negative bacteria): 6.73 µM

NC1CC1c1ccc(NC(=O)c2ccc3ccccc3c2)cc1 (centres unmarked)
inhibition (Amine oxidase [flavin-containing] A (MAOA, Homo sapiens, UniProt P21397); enzyme activity, inhibitor, HRP-coupled; 100 µM, added: kynuramine substrate): 95%

CC[C@H](C)[C@H](NC(=O)[C@H](CCCCN)NC(=O)[C@H](CCC(N)=O)NC(=O)[C@H](Cc1ccccc1)NC(=O)[C@@H](NC(=O)[C@H](CCCCN)NC(=O)[C@H](CCCCN)NC(=O)[C@H](CC(C)C)NC(=O)[C@H](C)NC(=O)[C@H](CC(N)=O)NC(=O)[C@@H](N)CC(C)C)C(C)C)C(=O)N[C@@H](Cc1c[nH]cn1)C(N)=O
MIC increase (Escherichia coli; ATCC 25922; 0.5 x MIC, 20 passages): no effect

CCCCCc1cc(O)c2c(c1)OC(C)(C)[C@@H]1CCC(C)=C[C@@H]21
inhibition (Sodium-dependent dopamine transporter (SLC6A3, Homo sapiens, UniProt Q01959); binding; 1 µM): 22%

A few entries again:
CC[C@H](C)[C@H](NC(=O)[C@H](CC(C)C)NC(=O)[C@H](CCCCN)NC(=O)[C@@H](NC(=O)[C@H](C)NC(=O)[C@H](CCC(=O)O)NC(=O)[C@H](Cc1c[nH]cn1)NC(=O)[C@@H](NC(=O)[C@H](CCCCN)NC(=O)[C@H](CCC(N)=O)NC(=O)[C@H](Cc1ccccc1)NC(=O)[C@@H](NC(=O)[C@H](CCCCN)NC(=O)[C@H](CCCCN)NC(=O)[C@H](CC(C)C)NC(=O)[C@H](C)NC(=O)[C@H](CC(N)=O)NC(=O)[C@@H](N)CC(C)C)C(C)C)[C@@H](C)CC)[C@@H](C)CC)C(N)=O
HC10 (mouse erythrocytes): 100 µM
